Experimental data of several laboratories.
Compare with care: the assays were run in different laboratories. Several values in a cell are separate wells, animals, samples, runs or records. Numbers after ± are the reported error.

With CN(Cc1ccccc1)C(=O)CN1CCN(CC(=O)N(C)Cc2ccccc2)CCN(Cc2cccc(C(=O)[O-])n2)CC1.[44Sc+3] the tissue uptake was 35.1 ± 14.8 %ID/g (BALB/c mouse, small intestine; intravenous, 1 h).
The tissue uptake of COc1cccc(OC)c1-c1cc(C(=O)NC2(C(=O)O)C3CC4CC(C3)CC2C4)nn1-c1ccc(C(=O)N(C)CCOCCOCCN(C)C(=O)[C@H](CCCCNC(=O)[C@H](CC(C)C)NC(=O)C2OC2C(=O)O)NC(=O)CN2CCN(CC(=O)[O-])CCN(CC(=O)[O-])CCN(CC(=O)[O-])CC2)cc1C(C)C.[177Lu+3] (mixture of isomers) is reported as 0.81 %ID/g (mouse, HT-29 xenograft, spleen; 24 h post injection).
The tissue uptake of N#C[C@@H]1CC(F)(F)CN1C(=O)CNC(=O)c1ccnc2c(NC(=O)CCOCCOCCOCCOCCOCCOCCNC(=O)[C@H](CCCCNC(=O)CN3CCN(CC(=O)[O-])CCN(CC(=O)[O-])CCN(CC(=O)[O-])CC3)NC(=O)CCCc3ccc(I)cc3)cccc12.[177Lu+3] is reported as 0.55 ± 0.18 %ID/g (mouse, U-87 MG tumour xenograft, kidneys; 24 h).
COc1cccc(OC)c1-c1cc(C(=O)NC2(C(=O)O)C3CC4CC(C3)CC2C4)nn1-c1ccc(C(=O)N(C)CCOCCN(C)C(=O)[C@H](CCCCNC(=O)[C@H](CC(C)C)NC(=O)C2OC2C(=O)O)NC(=O)CN2CCN(CC(=O)[O-])CCN(CC(=O)[O-])CCN(CC(=O)[O-])CC2)cc1C(C)C.[177Lu+3] (mixture of isomers) gave a tissue uptake of 0.09 %ID/g (mouse HT-29 xenograft, small intestine; 168 h post injection, biodistribution).
For O=C([O-])CN1CCN(CC(=O)[O-])CCN(Cc2cccc(C(=O)[O-])n2)CC1.[18F-].[Sc+3], the tissue uptake was 0.44 ± 0.12 %ID/g (BALB/c mouse, small intestine; intravenous, 1 h).
With Cc1n[nH]c(C)c1CCCOc1cc(C(=O)NCCCCC(NC(=O)CN2CCN(CC(=O)[O-])CCN(CC(=O)[O-])CCN(CC(=O)[O-])CC2)C(=O)NCC2CCC(C(=O)NC(Cc3ccc4ccccc4c3)C(=O)NCCCCC(NC(=O)NC(CCC(=O)O)C(=O)O)C(=O)O)CC2)ccc1F.[68Ga+3] (centres unmarked) the tissue uptake was 6.07 ± 0.46 %ID/g (mouse 22Rv1 xenograft, kidney; 4 h).
With COc1cccc(OC)c1-c1cc(C(=O)NC2(C(=O)O)C3CC4CC(C3)CC2C4)nn1-c1ccc(C(=O)N(C)CCCN(C)C(=O)[C@H](CCCCNC(=O)[C@H](CC(C)C)NC(=O)C2OC2C(=O)O)NC(=O)CN2CCN(CC(=O)[O-])CCN(CC(=O)[O-])CCN(CC(=O)[O-])CC2)cc1C(C)C.[177Lu+3] (mixture of isomers) the tissue uptake was 0.13 %ID/g (mouse, HT-29 xenograft, muscle; 24 h post injection).
For CCCC[C@H](NC(=O)CNC(=O)CNC(=O)[C@H](CCCCNC(=O)[C@H](CC(N)=O)NC(=O)C(C)c1ccc(CC(C)C)cc1)NC(=O)CN1CCN(CC(=O)O)CCN(CC(=O)O)CCN(CC(=O)O)CC1)C(=O)N[C@H]1CC(=O)NCCCC[C@@H](C(N)=O)NC(=O)[C@H](Cc2c[nH]c3ccccc23)NC(=O)[C@H](CCCNC(=N)N)NC(=O)[C@@H](Cc2ccccc2)NC(=O)[C@H](Cc2c[nH]cn2)NC1=O (some centres unmarked) [lutetium-177 labelled], the tissue uptake was 1.93 ± 0.43 %ID (C57 mouse, intestines; 2 h).
With COc1cccc(OC)c1-c1cc(C(=O)NC2(C(=O)O)C3CC4CC(C3)CC2C4)nn1-c1ccc(C(=O)N(C)CCCN(C)CCCN(C)C(=O)[C@H](CCCCNC(=O)[C@H](CC(C)C)NC(=O)C2OC2C(=O)O)NC(=O)CN2CCN(CC(=O)[O-])CCN(CC(=O)[O-])CCN(CC(=O)[O-])CC2)cc1C(C)C.[177Lu+3] (mixture of isomers) the tissue uptake was 0.9 %ID/g (mouse, HT-29 xenograft, spleen; 72 h post injection).
With O=C(O)CCCOc1ccc([18F])cc1-c1cc(-c2ccccc2C(F)(F)F)n(-c2ccccc2)n1 the tissue uptake was 2.85 ± 0.09 %ID/g (mouse, small intestine; intravenous, dose not given, 5 min).
CC(C)Cc1ccc(C(C)C(=O)N[C@@H](CCCCNC(=O)CCOCCOCCOCCOCCOCCOCCNC(=O)CN2CCN(CC(=O)[O-])CCN(CC(=O)[O-])CCN(CC(=O)[O-])CC2)C(=O)Nc2cccc3c(C(=O)NCC(=O)N4CC(F)(F)C[C@H]4C#N)ccnc23)cc1.[177Lu+3] (some centres unmarked) gave a tissue uptake of 14.4 ± 1.62 %ID/g (mouse, U-87 MG tumour xenograft, lung; 1 h).
COc1ccc(Nc2nc(Nc3ccc(OCCOCC[18F])cc3)ncc2Br)cc1 gave a tissue uptake of 4.36 ± 0.62 %ID/g (ICR mouse, S180 sarcoma-bearing, blood; intravenous, 370 kBq in 100 µL, 15 min).
With N#C[C@@H]1CC(F)(F)CN1C(=O)CNC(=O)c1ccnc2c(NC(=O)[C@H](CCCCNC(=O)CCOCCOCCOCCOCCOCCOCCNC(=O)CN3CCN(CC(=O)[O-])CCN(CC(=O)[O-])CCN(CC(=O)[O-])CC3)NC(=O)CCCc3ccc(I)cc3)cccc12.[177Lu+3] the tissue uptake was 0.48 ± 0.1 %ID/g (mouse, U-87 MG tumour xenograft, brain; 1 h).
The tissue uptake of CN(Cc1ccccc1)C(=O)CN1CCN(CC(=O)[O-])CCN(CC(=O)[O-])CC1.[18F-].[Sc+3] is reported as 0.31 ± 0.22 %ID/g (BALB/c mouse, large intestine; intravenous, 1 h).
With COc1ccc(Nc2nc(Nc3ccc(OCCOCCOCC[18F])cc3)ncc2Br)cc1 the tissue uptake was 6.48 ± 0.92 %ID/g (ICR mouse, S180 sarcoma-bearing, blood; intravenous, 370 kBq in 100 µL, 5 min).
COc1cccc(OC)c1-c1cc(C(=O)NC2(C(=O)O)C3CC4CC(C3)CC2C4)nn1-c1ccc(C(=O)NCCNC(=O)[C@H](CCCCNC(=O)[C@H](CC(C)C)NC(=O)C2OC2C(=O)O)NC(=O)CN2CCN(CC(=O)[O-])CCN(CC(=O)[O-])CCN(CC(=O)[O-])CC2)cc1C(C)C.[177Lu+3] (mixture of isomers) gave a tissue uptake of 1.8 %ID/g (mouse, HT-29 xenograft, heart; 4 h post injection).
The tissue uptake of O=C([O-])CN1CCN(CC(=O)[O-])CCN(CC(=O)NCC2CCC(C(=O)NC(Cc3ccc4ccccc4c3)C(=O)NCCCCC(NC(=O)NC(CCC(=O)O)C(=O)O)C(=O)O)CC2)CCN(CC(=O)[O-])CC1.[68Ga+3] (centres unmarked) is reported as 24.4 ± 12.3 %ID/g (PET/CT; mouse 22Rv1 xenograft, kidney; 1 h).
The tissue uptake of O=C([O-])CN1CCN(CC(=O)O)CCN(CC(=O)[O-])CCN(CC(=O)NCC2CCC(C(=O)NC(Cc3ccc4ccccc4c3)C(=O)NCCCCC(NC(=O)NC(CCC(=O)O)C(=O)O)C(=O)O)CC2)CC1.[212Pb+2] (centres unmarked) is reported as 2.49 ± 1.39 %ID/g (measured: 212Pb; athymic mouse, C4-2 prostate xenograft, prostate; intravenous, 2 h).
CN(Cc1ccccc1)C(=O)CN1CCN(CC(=O)[O-])CCN(Cc2cccc(C(=O)[O-])n2)CC1.[177Lu+3] has a tissue uptake of 1.82 ± 0.06 %ID/g (BALB/c mouse, small intestine; intravenous, 1 h).
With [11CH3]N1CCC(NC(=O)c2cc(-c3c(O)cc(O)cc3Oc3ccc([N+](=O)[O-])cc3)on2)CC1 the tissue uptake was 2.1 ± 0.4 %ID (NMRI mouse, healthy, kidneys; intravenous, 5.5 MBq, 60 min).
For CC[C@H](C)[C@H](NC(=O)C[C@H](NC(=O)CN1CCN2CCN(CC1)CC(=O)[O][Al]([18F])[O]C(=O)C2)C(=O)O)C(=O)N[C@H]1CCc2cccc3c2N(C1=O)[C@H](C(=O)NCc1cn[nH]n1)C3, the tissue uptake was 1.16 ± 0.37 %ID/g (C57BL/6J mouse, MC-38 tumour, blood; 30 min post injection, anti-PD-1 treated).
For COc1ccc2c(c1)C(C)(C)C(/C=C/C1=C(Oc3ccc(C(=O)NCCCCOc4cc(CN(Cc5ccccn5)Cc5ccccn5)cc(CN(Cc5ccccn5)Cc5ccccn5)c4)cc3)C(=C/C=C3/N(CCCCS(=O)(=O)[O-])c4ccc(OC)cc4C3(C)C)CCC1)=[N+]2CCCCS(=O)(=O)[O-].O=[N+]([O-])[O-].O=[N+]([O-])[O-].[99Tc+].[C-]#[O+].[C-]#[O+].[C-]#[O+].[Zn+2], the tissue uptake was 0.03 %ID/g and 0.02 %ID/g (BALB/c mouse, Staphylococcus aureus myositis, brain; 12 h).
CN(Cc1ccccc1)C(=O)CN1CCN(CC(=O)[O-])CCN(CC(=O)N(C)Cc2ccccc2)CC1.[18F-].[Sc+3] gave a tissue uptake of 0.3 ± 0.02 %ID/g (BALB/c mouse, large intestine; intravenous, 1 h).
